Assay results of several laboratories.
Target: Kappa-type opioid receptor (OPRK1, Homo sapiens, UniProt P41145)

CCOC(=O)c1cc(Cc2ccccc2)cc2c1NCCC2NC(=O)C(N)Cc1c(C)cc(O)cc1C (stereo not shown) — Ki (ligand displacement, radioligand; cell membranes): 47 nM
Cc1cc(O)cc(C)c1CC(N)C(=O)NC1CCNc2ccc(CN3CCCCCC3)cc21 (stereo not shown) — Ki (ligand displacement, radioligand; cell membranes): 3.6 nM
CC(C)[C@H]1CC[C@H](N2CC[C@@](C)(c3cccc(O)c3)[C@@H](C)C2)CC1 — Ki (ligand displacement, radioligand): 51.5 nM
Cc1cc(O)cc(C)c1CC(N)C(=O)NC1CCNc2c1cc(Cc1ccccc1)cc2C(F)(F)F (stereo not shown) — Ki (ligand displacement, radioligand; cell membranes): 29 nM
CC(=O)N1CCC(NC(=O)C(N)Cc2c(C)cc(O)cc2C)c2cc(CN3CCc4ccccc4C3)ccc21 (stereo not shown) — Ki (ligand displacement, radioligand; cell membranes): 0.78 nM
Cc1cc(O)cc(C)c1C[C@H](N)C(=O)N1Cc2ccccc2C[C@H]1CN[C@@H](Cc1ccccc1)C(=O)N[C@@H](Cc1ccccc1)C(N)=O — Ki (ligand displacement, radioligand; cell membranes): 3.9 nM
CCNC(=O)c1cc(Cc2ccccc2)cc2c1NCCC2NC(=O)C(N)Cc1c(C)cc(O)cc1C (stereo not shown) — Ki (ligand displacement, radioligand; cell membranes): 25 nM
OC1(c2ccc(Cl)cc2)CCN(Cc2cccc(F)c2)CC1 — Ki (binding): 1000 nM
Cc1cc(O)cc(C)c1CC(N)C(=O)NC1CCNc2ccc(Cc3ccoc3)cc21 (stereo not shown) — Ki (ligand displacement, radioligand; cell membranes): 20 nM
NCc1ccc2[nH]c3c(c2c1)CC1(O)C2Cc4ccc(O)c5c4C1(CCN2CC1CC1)C3O5 (stereo not shown) — Ki (ligand displacement, radioligand; cell membranes): 1.36 nM
Cc1cc(O)cc(C)c1C[C@H](N)C(=O)N[C@@H](C(=O)NCC(=O)N[C@@H](Cc1ccc2ccccc2c1)C(=O)N[C@@H](CC(C)C)C(=O)N[C@@H](CO)C(N)=O)[C@H](C)O — Ki (ligand displacement, radioligand; pH 7.4, cell membranes): 2.3 nM
Cc1cc(O)cc(C)c1CC(N)C(=O)NC1CCNc2c(Cc3ccccc3)cccc21 (stereo not shown) — Ki (ligand displacement, radioligand; cell membranes): 1500 nM
Cc1cc(O)cc(C)c1CC(N)C(=O)NC1CCNc2ccc(CN3CCC4CCCCC4C3)cc21 (stereo not shown) — Ki (ligand displacement, radioligand; cell membranes): 37 nM
CCCc1cc(Cc2ccccc2)cc2c1NCCC2NC(=O)C(N)Cc1c(C)cc(O)cc1C (stereo not shown) — Ki (ligand displacement, radioligand; cell membranes): 98 nM
Cc1cc(O)cc(C)c1CC(N)C(=O)NC1CCNc2ccc(Cc3ccc4c(c3)OCO4)cc21 (stereo not shown) — Ki (ligand displacement, radioligand; cell membranes): 21 nM
CC(C)C[C@H](NC(=O)C1(NC(=O)CNC(=O)[C@H](NC(=O)[C@@H](N)Cc2ccc(O)cc2)[C@H](C)O)Cc2ccccc2C1)C(=O)N[C@@H](CO)C(N)=O — Ki (ligand displacement, radioligand; pH 7.4, cell membranes): > 10000 nM
Cc1cc(O)cc(C)c1CC(N)C(=O)NC1CCNc2ccc(CN3CCCCC3)cc21 (stereo not shown) — Ki (ligand displacement, radioligand; cell membranes): 29 nM
CC(C)C[C@H](NC(=O)[C@H](Cc1ccc2ccccc2c1)NC(=O)CNC(=O)[C@H](NC(=O)[C@@H](N)Cc1ccc(O)cc1)[C@H](C)O)C(=O)N[C@@H](CO[C@@H]1O[C@H](CO)[C@@H](O)[C@H](O)[C@H]1O)C(N)=O — Ki (ligand displacement, radioligand; pH 7.4, cell membranes): 130 nM
Cc1cc(O)cc(C)c1CC(N)C(=O)NC1CCNc2c(C(=O)O)cc(Cc3ccccc3)cc21 (stereo not shown) — Ki (ligand displacement, radioligand; cell membranes): 210 nM

For quick reference, copied from above:
Cc1cc(O)cc(C)c1CC(N)C(=O)NC1CCNc2c1cc(Cc1ccccc1)cc2C(F)(F)F (stereo not shown) — Ki (ligand displacement, radioligand; cell membranes): 29 nM
CC(=O)N1CCC(NC(=O)C(N)Cc2c(C)cc(O)cc2C)c2cc(CN3CCc4ccccc4C3)ccc21 (stereo not shown) — Ki (ligand displacement, radioligand; cell membranes): 0.78 nM
CC(C)[C@H]1CC[C@H](N2CC[C@@](C)(c3cccc(O)c3)[C@@H](C)C2)CC1 — Ki (ligand displacement, radioligand): 51.5 nM
